Results pooled from the literature.
Lines come from different studies, so protocols differ. ± marks the error that the study gave.
Target: N-formyl peptide receptor 2 (FPR2, Homo sapiens, UniProt P25090)
Sequence (P25090 1-351, as in one of the studies): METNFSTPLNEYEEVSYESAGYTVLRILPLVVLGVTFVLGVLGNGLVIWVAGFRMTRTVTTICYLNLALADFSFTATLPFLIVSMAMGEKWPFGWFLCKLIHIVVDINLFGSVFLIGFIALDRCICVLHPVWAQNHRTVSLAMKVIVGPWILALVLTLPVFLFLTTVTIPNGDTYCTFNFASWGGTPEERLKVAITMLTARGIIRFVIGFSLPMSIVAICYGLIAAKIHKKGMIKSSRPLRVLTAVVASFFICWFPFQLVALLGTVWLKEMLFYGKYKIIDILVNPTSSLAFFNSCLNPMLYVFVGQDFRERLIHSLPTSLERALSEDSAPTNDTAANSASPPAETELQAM

Substance	test	test system	conditions	measurement	result
CC1=NN(CC(=O)Nc2ccc(Br)cc2)C(=O)CC1c1ccccc1 (racemic)	calcium signal, agonist			EC50	630 nM
C[C@@](Cc1c[nH]c2ccccc12)(NC(=O)Nc1ccc([N+](=O)[O-])cc1)C(=O)NCC1(c2ccccn2)CCCCC1	calcium mobilization, agonist	HL-60 cells expressing FPR2		EC50	620 ± 260 nM
COc1ccc(NC(=O)N[C@H](Cc2ccc(O)cc2)C(=O)NCC2(c3ccccc3)CC2)cc1	calcium signal, antagonist			IC50	24800 nM
CCC[C@H](C(=O)Nc1ccc(Br)cc1)n1nc(C)cc(Cc2cccc(OC)c2)c1=O	calcium mobilization, agonist	HL-60 transfected with FPR2		EC50	840 nM
CC1=NN(CC(=O)Nc2ccc(Br)cc2)C(=O)CC1C (racemic)	calcium signal, agonist			EC50	2600 nM
serum amyloid A protein	radioligand competition	HEK293 expressing FPR2	30 min, 4 °C, with: [3H]lipoxin A4	IC50	10 to 100 nM
COc1ccc(C2(CNC(=O)[C@](C)(Cc3c[nH]c4ccccc34)NC(=O)Nc3ccc([N+](=O)[O-])cc3)CCCCC2)nc1	calcium mobilization, agonist	HL-60 cells expressing FPR2		EC50	1300 ± 350 nM
CCC(C(=O)Nc1ccc(Br)cc1)n1nc(C)cc(Cc2cccc(OC)c2)c1=O (racemic)	calcium mobilization, agonist	HL-60 transfected with FPR2		EC50	2200 nM

For quick reference, copied from above:
Substance	test	test system	conditions	measurement	result
COc1ccc(NC(=O)N[C@H](Cc2ccc(O)cc2)C(=O)NCC2(c3ccccc3)CC2)cc1	calcium signal, antagonist			IC50	24800 nM
